Literature values that unrelated publications cite.
Lines come from different studies, so protocols differ. ± gives the spread as reported.

Substance	target or system	test	test system	setting	endpoint	value
Cc1cn([C@H]2C[C@H](N=[N+]=[N-])[C@@H](CO)O2)c(=O)[nH]c1=O	HIV-1		X4 LAI.04, human tissue ex vivo		EC50	3.1 nM
O=C(N[C@@H](Cn1ccnc1)c1ccc(Cl)cc1Cl)c1ccc(-c2nnc(-c3ccccc3)o2)cc1	Trypanosoma cruzi		amastigotes		EC50	1.2 nM
CCC(C)c1c(O)ccc2c1CC[C@@H]1[C@@H]2CC[C@]2(C)C(=O)CC[C@@H]12 (stereo partly drawn)	HT-22	cell protection		together with: iodoacetic acid 20 µM	EC50	680 nM
C[C@H]1c2cccc(O)c2C(=O)C2=C(O)[C@]3(O)C(=O)C(C(N)=O)=C(O)[C@@H](N(C)C)[C@@H]3[C@@H](O)[C@@H]21	Plasmodium falciparum	parasite growth	blood stage		EC50	300 nM
COc1ccc(C(=O)NN=Cc2ccc(O)c3ncccc23)cc1	Bacillus subtilis	bacterial growth			EC50	83000 nM
CC(C)Oc1cc(NC(=N)c2ccccn2)ccc1-c1ccc(-c2ccc(NC(=N)c3ccccn3)cc2OC(C)C)s1	Trypanosoma cruzi		Y strain, bloodstream trypomastigotes	24 h, 37 °C	EC50	20 nM
CC[C@@H]([C@H](C)O)n1ncn(-c2ccc(N3CCN(c4ccc(OC[C@@H]5CO[C@@](Cn6cncn6)(c6ccc(F)cc6F)C5)cc4)CC3)cc2)c1=O	Leishmania donovani	growth	LV82 promastigote		EC50	2800 nM
O=C(Cn1ccnc1[N+](=O)[O-])NCc1ccccc1	Trypanosoma cruzi	trypanocidal activity	Y, trypomastigotes		EC50	34500 ± 7600 nM
CCCCCCCCCCCCCCCCOP(=O)([O-])OCC[N+](C)(C)C	Leishmania mexicana			intracellular amastigotes	EC50	6830 to 10100 nM
O=C(Nc1ncnc2c1ncn2[C@@H]1O[C@@H]2COP(=O)(O)OC2C1O)c1ccccc1 (stereo in doubt)	PDE4D	cyclic nucleotide hydrolysis, substrate or inhibitor, isothermal titration calorimetry			Km or Ki	49000 nM
CC(C)c1cnn2c(NCc3ccccc3-n3cccn3)nc(OC3CCCNC3)nc12 (stereo not drawn)	human cytomegalovirus	viral replication		mean value	EC50	10 nM
Nc1ccn([C@@H]2CS[C@H](CO)O2)c(=O)n1	hepatitis B virus	viral replication		published cell culture systems	EC50	6 to 30 nM
Nc1c(Cc2cccc3ccccc23)c(C2CC2)c2n(c1=O)C(n1cc(-c3ccccc3)nn1)CS2 (stereo not drawn)	Chlamydia trachomatis	infectivity	serovar L2		EC50	< 60 nM
CCCCCCCCCCCCCCCCOP(=O)([O-])OCC[N+](C)(C)C	Naegleria fowleri		KUL trophozoites		EC50	50000 nM
Cymbidium agglutinin	human cytomegalovirus	viral replication			EC50	350 nM
Nc1nc2c(ncn2/C=C2/CC2(CO)CO)c(=O)[nH]1	human cytomegalovirus	viral replication, plaque reduction	HFF, AD169		EC50	1200 ± 800 nM
C[C@]12CC[C@@H]3c4ccc(O)cc4CC[C@H]3[C@@H]1CC[C@H]2O	HT-22	cell protection		together with: iodoacetic acid 20 µM	EC50	3380 nM
CCCCCCCCCCCCCCCCOP(=O)([O-])OCC[N+](C)(C)C	Leishmania donovani		intramacrophage amastigotes		EC50	900 nM

Repeated from above:
Substance	target or system	test	test system	setting	endpoint	value
CC(C)c1cnn2c(NCc3ccccc3-n3cccn3)nc(OC3CCCNC3)nc12 (stereo not drawn)	human cytomegalovirus	viral replication		mean value	EC50	10 nM
